Assay results of several laboratories.
Each line is one published result; not all experiments were run side by side. ± marks the error that the study gave. Values after ≈ are worked out from the molar mass of the structure shown.

The serum HDL-C of `CCCCC1(CCCC)CN(c2ccccc2)c2cc(SC)c(OCC(=O)N[C@@H](C(=O)NCC(=O)O)c3ccccc3)cc2S(=O)(=O)C1` is reported as 42.9 mg/dL (item: HDL cholesterol; human, serum; 15 mg once daily, day 13).
`CC[C@H](C)[C@H](NC(=O)[C@H](CCCCN)NC(=O)[C@@H](NC(=O)[C@@H](NC(=O)[C@H](CC(C)C)NC(=O)[C@H](CCCNC(=N)N)NC(=O)[C@@H](NC(=O)[C@H](CC(C)C)NC(=O)[C@H](CCCNC(=N)N)NC(=O)CNC(=O)[C@H](Cc1ccccc1)NC(=O)[C@@H](N)CCCNC(=N)N)[C@@H](C)CC)[C@@H](C)CC)C(C)C)C(=O)N[C@@H](C)C(=O)N[C@@H](CCCNC(=N)N)C(=O)N[C@@H](CCCNC(=N)N)C(=O)N[C@@H](C)C(=O)N[C@@H](Cc1c[nH]cn1)C(=O)N[C@@H](CCCNC(=N)N)C(=O)N[C@@H](C)C(=O)N[C@@H](CCCNC(=N)N)C(=O)N[C@@H](CO)C(=O)N[C@@H](C)C(=O)N[C@H](C(=O)N[C@@H](CCCCN)C(=O)N[C@@H](C)C(=O)N[C@@H](C)C(=O)N[C@@H](CO)C(=O)N[C@@H](CC(N)=O)C(=O)N[C@H](C(=O)N[C@@H](C)C(=O)N[C@@H](CCC(=O)O)C(=O)N[C@@H](CC(C)C)C(=O)N[C@@H](C)C(=O)N[C@@H](Cc1c[nH]cn1)C(=O)NCC(=O)N[C@@H](CCC(=O)O)C(=O)O)C(C)C)C(C)C` gave an EC50 of 1870 ± 260 nM (SH-SY5Y; membrane disruption, propidium iodide uptake; 600 s, with: propidium iodide 50 µM).
`CN1CCN(S(=O)(=O)c2cc([N+](=O)[O-])ccc2N(CCOS(C)(=O)=O)CCOS(C)(=O)=O)CC1` — result for “EFS delay (T-C)”: 23.9 days (NSG mice, sample BB PDX; intraperitoneal, 25 mg/kg weekly x3; relative to: vehicle).
For `COc1ccc(-c2cc(C(F)(F)F)c3c(N)c(C(=O)NC(C)C4CCCCC4)sc3n2)cc1` (stereo not drawn), the IC50 was 560 ± 100 nM (Mycobacterium tuberculosis; growth inhibition; H37Rv LepB under-expressing).
For `CC[C@H](C)[C@@H]1NC(=O)[C@@H]2CCCN2C(=O)[C@H](CC(C)C)NC(=O)[C@H](CC(C)C)NC(=O)CNC(=O)[C@@H](NC(=O)[C@@H](NC(=O)[C@H](CC(=O)O)NC(=O)CNC(=O)[C@@H](NC(=O)[C@H](C)NC(=O)CNC(=O)[C@H](CCCCN)NC(=O)[C@H](CC(C)C)NC(=O)[C@H](CC(C)C)NC(=O)[C@H](CCCCN)NC(=O)CNC(=O)[C@@H](NC(=O)[C@@H](N)CC(C)C)C(C)C)C(C)C)C(C)C)CSSC[C@@H](C(=O)O)NC1=O`, “log2 fold change” read -2.11 (RNA-seq, item: Phospho1; mouse, traumatic brain injury model, frontal cortex and hippocampus; dose not given; relative to: TBI alone).
`Clc1ccccc1-c1ccccc1Cl` has an IC50 of 23000 nM (gap junction, rat; gap junctional communication, scrape loading dye transfer; WB-F344 rat liver epithelial; 1 h).
`COc1ccc(-c2cc(C(F)(F)F)c3c(N)c(C(=O)Nc4cccc(C)c4C)sc3n2)cc1` gave a selectivity index of 33 (Mycobacterium tuberculosis; H37Rv wild type; relative to: HepG2 IC50 over M. tuberculosis IC90).
With `CNc1ncc2c(/C=C/C(=O)N3CCC4(CC3)OCCO4)nn(Cc3cccc(C(F)(F)F)c3)c2n1` the EC50 was 120 nM (CP-A pre-malignant; cell viability, PrestoBlue; 120 h).
For `Nc1ncnc2c1ncn2[C@@H]1O[C@@H]2COP(=O)(O)O[C@H]3[C@@H](O)[C@H](n4cnc5c(=O)[nH]cnc54)O[C@@H]3COP(=O)(O)O[C@H]2[C@H]1O`, the fold enrichment was 9.62 (HFF-1; RNA sequencing, item: Reactome ISG15 antiviral mechanism; upregulated pathways; relative to: mock).
`Cc1c2c(nn1C)CSCc1cc(n(C)n1)CSc1cc(c3ccccc3c1)OCCCc1c(C(=O)O)n(C)c3c-2c(Cl)ccc13` has a fold change of 0.0254 (Staphylococcus aureus; label-free quantitative proteomics, item: SAOUHSC_01450 protein; SA113; concentration not given; relative to: untreated control).
The toxicity of `COc1ccc(-n2nc(C(C)=O)s/c2=N\N=C(/C)c2ccc(NC(C)=O)cc2)cc1` is reported as 96.8% (WI-38; 2.5 µM).
`COc1cc(C(NCCc2c[nH]c3ccccc23)c2nnnn2C(C)(C)C)cc(OC)c1OC` (stereo not drawn) gave a viability reduction of 23.3% (Schistosoma mansoni; microscopic viability scoring; newly transformed schistosomula; 10 µM, 72 h, prescreen).
With `COc1cc(CCC[P+](c2ccccc2)(c2ccccc2)c2ccccc2)c(OC)c2c1OCO2.[I-]` the LC50 was -4.09 log M (SF-539; SRB).
The IC50 of `Nc1c(C(=O)N2CCCC2)sc2nc(-c3ccc4c(c3)OCO4)cc(C(F)(F)F)c12` is reported as greater than 100000 nM (Mycobacterium tuberculosis; growth inhibition; H37Rv LepB under-expressing).
`CC(C)(C)n1nnnc1C(c1ccc([N+](=O)[O-])cc1)N1CCc2ccccc2C1` (stereo not drawn) gave a viability reduction of 12.5% (Schistosoma mansoni; microscopic viability scoring; newly transformed schistosomula; 10 µM, 72 h, prescreen).
`Cc1cccc(NC(=O)c2sc3nc(-c4cccs4)cc(C(F)(F)F)c3c2N)c1C` — result for IC90: “inactive” (Mycobacterium tuberculosis; H37Rv wild type; 120 h).
`C[C@@H]1C[C@@]2(N=CCS2)[C@]2(O)O[C@@H]3C[C@@]4(C=O)[C@@H](CC[C@@H]5[C@@H]4CC[C@]4(C)[C@@H](C6=CC(=O)OC6)CC[C@]54O)C[C@H]3O[C@@H]2O1` has a viability effect of 100% (Schistosoma mansoni; microscopic viability score; adult worms; 10 µM, 72 h).
For `O=c1[nH]c2ccc(Cl)cc2c(=S)n1Cc1cccnc1`, the MIC90 was greater than 100 µM (Mycobacterium tuberculosis; PptT conditional knockdown).
With `O=C(Nc1cccnn1)N1CCN([C@@H]2CCOc3cc(C(F)(F)F)ccc32)CC1` the inhibition was 64% (sigma receptor (non-selective); binding; 20 µM).
`Clc1cccc(Cl)c1CSc1nc2ccccc2s1` gave a viability reduction of 6.9% (Schistosoma mansoni; microscopic viability scoring; newly transformed schistosomula; 10 µM, 72 h, prescreen).
`CCCCN1CCCC[C@H]1C(=O)Nc1c(C)cccc1C` gave a Kd of 107000 ± 10000 nM (sodium channel (rat); peak sodium current, blocker, whole-cell patch clamp; GH3; tonic block).
For `COc1c(CCC[P+](c2ccccc2)(c2ccccc2)c2ccccc2)cc2c(c1OC)OCO2.[I-]`, the GI50 was -6.63 log M (RPMI-8226; SRB).
The MBC90 of `CC[C@H](C)[C@H](NC(=O)[C@H](C)NC(=O)[C@H](CCCCN)NC(=O)[C@H](CC(C)C)NC(=O)[C@H](C)NC(=O)[C@@H](NC(=O)[C@H](Cc1c[nH]cn1)NC(=O)[C@H](CC(C)C)NC(=O)[C@@H](NC(=O)[C@@H](NC(=O)[C@H](CCCCN)NC(=O)[C@H](C)NC(=O)[C@H](C)NC(=O)[C@H](CO)NC(=O)[C@H](CCCCN)NC(=O)[C@H](Cc1ccccc1)NC(=O)[C@@H](NC(=O)[C@H](CCCCN)NC(=O)[C@H](CC(C)C)NC(=O)[C@H](Cc1ccccc1)NC(=O)[C@H](CO)NC(=O)[C@H](CCCCN)NC(=O)[C@H](Cc1c[nH]c2ccccc12)NC(=O)[C@H](CCCCN)NC(C)=O)[C@@H](C)O)[C@@H](C)O)C(C)C)[C@@H](C)O)C(=O)N[C@@H](CO)C(=O)N[C@@H](CO)C(N)=O` is reported as 32 µg/mL (≈ 10.9 µM) (Klebsiella pneumoniae; 40 strains).
`CC(C)C[C@@H]1NC(=O)[C@@H](Cc2ccccc2)NC(=O)[C@H](CCN)NC(=O)[C@@H](NC(=O)[C@H](CCN)NC(=O)[C@@H](N)[C@@H](C)O)CCNC(=O)[C@H]([C@@H](C)O)NC(=O)[C@H](CCN)NC(=O)[C@H](CCN)NC1=O` has an MIC of 12.5 µg/mL (Escherichia coli; BW25113; with: novobiocin, lowest FICI).

Excerpt of the above:
For `CC[C@H](C)[C@@H]1NC(=O)[C@@H]2CCCN2C(=O)[C@H](CC(C)C)NC(=O)[C@H](CC(C)C)NC(=O)CNC(=O)[C@@H](NC(=O)[C@@H](NC(=O)[C@H](CC(=O)O)NC(=O)CNC(=O)[C@@H](NC(=O)[C@H](C)NC(=O)CNC(=O)[C@H](CCCCN)NC(=O)[C@H](CC(C)C)NC(=O)[C@H](CC(C)C)NC(=O)[C@H](CCCCN)NC(=O)CNC(=O)[C@@H](NC(=O)[C@@H](N)CC(C)C)C(C)C)C(C)C)C(C)C)CSSC[C@@H](C(=O)O)NC1=O`, “log2 fold change” read -2.11 (RNA-seq, item: Phospho1; mouse, traumatic brain injury model, frontal cortex and hippocampus; dose not given; relative to: TBI alone).
`Clc1ccccc1-c1ccccc1Cl` has an IC50 of 23000 nM (gap junction, rat; gap junctional communication, scrape loading dye transfer; WB-F344 rat liver epithelial; 1 h).
`COc1ccc(-c2cc(C(F)(F)F)c3c(N)c(C(=O)Nc4cccc(C)c4C)sc3n2)cc1` gave a selectivity index of 33 (Mycobacterium tuberculosis; H37Rv wild type; relative to: HepG2 IC50 over M. tuberculosis IC90).
